{"data": "Experimental data collected from several papers", "gag-pol integrase": "Gag-Pol polyprotein, integrase (gag-pol, Human immunodeficiency virus type 1 group M subtype B, UniProt P04585)", "note": "± gives the spread as reported.", "UniProt P04849, sequence (whole entry, looked up)": "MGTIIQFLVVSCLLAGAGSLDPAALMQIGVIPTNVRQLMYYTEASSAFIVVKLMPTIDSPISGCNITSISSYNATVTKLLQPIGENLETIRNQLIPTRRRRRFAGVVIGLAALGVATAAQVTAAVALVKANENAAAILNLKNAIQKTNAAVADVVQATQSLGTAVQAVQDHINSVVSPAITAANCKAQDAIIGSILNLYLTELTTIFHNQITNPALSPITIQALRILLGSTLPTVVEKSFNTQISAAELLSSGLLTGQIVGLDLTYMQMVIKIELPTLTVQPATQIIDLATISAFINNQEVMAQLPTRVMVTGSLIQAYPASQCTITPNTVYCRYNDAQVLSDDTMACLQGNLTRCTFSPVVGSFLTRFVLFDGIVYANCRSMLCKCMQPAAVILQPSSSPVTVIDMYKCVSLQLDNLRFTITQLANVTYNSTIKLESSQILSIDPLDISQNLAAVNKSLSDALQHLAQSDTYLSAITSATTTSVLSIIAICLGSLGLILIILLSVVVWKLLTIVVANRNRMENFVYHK", "UniProt Q9P0X4, sequence (whole entry, looked up)": "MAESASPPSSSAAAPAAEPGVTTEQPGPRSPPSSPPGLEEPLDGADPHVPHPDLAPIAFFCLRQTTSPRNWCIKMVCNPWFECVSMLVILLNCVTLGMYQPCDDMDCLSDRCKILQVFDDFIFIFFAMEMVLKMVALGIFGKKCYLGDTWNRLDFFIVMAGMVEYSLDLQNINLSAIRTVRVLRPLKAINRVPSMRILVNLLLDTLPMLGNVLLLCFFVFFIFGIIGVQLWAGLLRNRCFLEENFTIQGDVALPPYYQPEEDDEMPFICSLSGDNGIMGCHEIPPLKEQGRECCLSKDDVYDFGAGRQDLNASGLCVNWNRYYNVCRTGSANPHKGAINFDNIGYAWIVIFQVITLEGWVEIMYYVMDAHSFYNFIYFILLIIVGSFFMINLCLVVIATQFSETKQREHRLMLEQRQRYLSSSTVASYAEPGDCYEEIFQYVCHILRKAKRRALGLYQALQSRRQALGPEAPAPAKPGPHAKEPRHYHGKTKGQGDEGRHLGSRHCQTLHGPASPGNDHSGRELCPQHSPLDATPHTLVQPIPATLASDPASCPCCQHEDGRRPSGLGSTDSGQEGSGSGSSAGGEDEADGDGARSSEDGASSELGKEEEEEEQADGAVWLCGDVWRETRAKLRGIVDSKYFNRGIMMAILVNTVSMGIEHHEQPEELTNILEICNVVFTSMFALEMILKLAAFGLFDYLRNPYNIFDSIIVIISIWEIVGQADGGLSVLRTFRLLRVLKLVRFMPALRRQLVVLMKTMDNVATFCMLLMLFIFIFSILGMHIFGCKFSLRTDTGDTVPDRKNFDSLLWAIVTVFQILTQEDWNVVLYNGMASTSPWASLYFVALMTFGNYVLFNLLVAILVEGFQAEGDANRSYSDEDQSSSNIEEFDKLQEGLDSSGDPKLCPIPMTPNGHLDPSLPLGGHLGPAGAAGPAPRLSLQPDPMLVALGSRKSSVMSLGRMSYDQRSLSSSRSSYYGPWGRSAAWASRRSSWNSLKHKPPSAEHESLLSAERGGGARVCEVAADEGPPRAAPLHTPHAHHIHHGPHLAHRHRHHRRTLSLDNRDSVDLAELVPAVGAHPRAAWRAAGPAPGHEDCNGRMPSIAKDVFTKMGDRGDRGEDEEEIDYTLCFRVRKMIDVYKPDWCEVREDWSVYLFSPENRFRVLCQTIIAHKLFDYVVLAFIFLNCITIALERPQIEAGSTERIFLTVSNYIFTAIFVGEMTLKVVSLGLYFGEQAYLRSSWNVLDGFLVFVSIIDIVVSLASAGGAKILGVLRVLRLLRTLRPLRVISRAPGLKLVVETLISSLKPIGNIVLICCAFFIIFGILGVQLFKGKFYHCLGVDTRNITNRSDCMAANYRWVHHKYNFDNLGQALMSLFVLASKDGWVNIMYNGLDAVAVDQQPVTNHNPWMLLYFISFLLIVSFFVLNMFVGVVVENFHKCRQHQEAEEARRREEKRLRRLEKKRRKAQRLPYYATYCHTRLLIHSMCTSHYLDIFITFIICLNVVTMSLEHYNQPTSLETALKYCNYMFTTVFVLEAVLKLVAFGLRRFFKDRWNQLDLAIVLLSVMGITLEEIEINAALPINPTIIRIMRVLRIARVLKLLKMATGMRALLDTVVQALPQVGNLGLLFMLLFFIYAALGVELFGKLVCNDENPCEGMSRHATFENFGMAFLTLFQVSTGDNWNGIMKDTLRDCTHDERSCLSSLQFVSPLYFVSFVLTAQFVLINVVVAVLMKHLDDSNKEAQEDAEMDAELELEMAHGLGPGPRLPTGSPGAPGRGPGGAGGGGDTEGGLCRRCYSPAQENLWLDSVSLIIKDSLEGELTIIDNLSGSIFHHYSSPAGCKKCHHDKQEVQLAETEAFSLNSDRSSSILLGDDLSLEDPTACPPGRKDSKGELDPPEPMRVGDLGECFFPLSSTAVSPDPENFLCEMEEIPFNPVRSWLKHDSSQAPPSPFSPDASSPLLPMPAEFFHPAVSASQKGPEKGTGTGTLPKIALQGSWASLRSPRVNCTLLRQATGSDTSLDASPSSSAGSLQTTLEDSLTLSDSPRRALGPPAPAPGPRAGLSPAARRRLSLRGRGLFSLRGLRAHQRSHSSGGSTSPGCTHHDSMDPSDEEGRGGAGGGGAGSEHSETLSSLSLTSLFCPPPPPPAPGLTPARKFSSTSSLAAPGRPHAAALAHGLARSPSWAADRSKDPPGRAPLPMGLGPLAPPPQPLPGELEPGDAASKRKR", "UniProt Q15858, sequence (whole entry, looked up)": "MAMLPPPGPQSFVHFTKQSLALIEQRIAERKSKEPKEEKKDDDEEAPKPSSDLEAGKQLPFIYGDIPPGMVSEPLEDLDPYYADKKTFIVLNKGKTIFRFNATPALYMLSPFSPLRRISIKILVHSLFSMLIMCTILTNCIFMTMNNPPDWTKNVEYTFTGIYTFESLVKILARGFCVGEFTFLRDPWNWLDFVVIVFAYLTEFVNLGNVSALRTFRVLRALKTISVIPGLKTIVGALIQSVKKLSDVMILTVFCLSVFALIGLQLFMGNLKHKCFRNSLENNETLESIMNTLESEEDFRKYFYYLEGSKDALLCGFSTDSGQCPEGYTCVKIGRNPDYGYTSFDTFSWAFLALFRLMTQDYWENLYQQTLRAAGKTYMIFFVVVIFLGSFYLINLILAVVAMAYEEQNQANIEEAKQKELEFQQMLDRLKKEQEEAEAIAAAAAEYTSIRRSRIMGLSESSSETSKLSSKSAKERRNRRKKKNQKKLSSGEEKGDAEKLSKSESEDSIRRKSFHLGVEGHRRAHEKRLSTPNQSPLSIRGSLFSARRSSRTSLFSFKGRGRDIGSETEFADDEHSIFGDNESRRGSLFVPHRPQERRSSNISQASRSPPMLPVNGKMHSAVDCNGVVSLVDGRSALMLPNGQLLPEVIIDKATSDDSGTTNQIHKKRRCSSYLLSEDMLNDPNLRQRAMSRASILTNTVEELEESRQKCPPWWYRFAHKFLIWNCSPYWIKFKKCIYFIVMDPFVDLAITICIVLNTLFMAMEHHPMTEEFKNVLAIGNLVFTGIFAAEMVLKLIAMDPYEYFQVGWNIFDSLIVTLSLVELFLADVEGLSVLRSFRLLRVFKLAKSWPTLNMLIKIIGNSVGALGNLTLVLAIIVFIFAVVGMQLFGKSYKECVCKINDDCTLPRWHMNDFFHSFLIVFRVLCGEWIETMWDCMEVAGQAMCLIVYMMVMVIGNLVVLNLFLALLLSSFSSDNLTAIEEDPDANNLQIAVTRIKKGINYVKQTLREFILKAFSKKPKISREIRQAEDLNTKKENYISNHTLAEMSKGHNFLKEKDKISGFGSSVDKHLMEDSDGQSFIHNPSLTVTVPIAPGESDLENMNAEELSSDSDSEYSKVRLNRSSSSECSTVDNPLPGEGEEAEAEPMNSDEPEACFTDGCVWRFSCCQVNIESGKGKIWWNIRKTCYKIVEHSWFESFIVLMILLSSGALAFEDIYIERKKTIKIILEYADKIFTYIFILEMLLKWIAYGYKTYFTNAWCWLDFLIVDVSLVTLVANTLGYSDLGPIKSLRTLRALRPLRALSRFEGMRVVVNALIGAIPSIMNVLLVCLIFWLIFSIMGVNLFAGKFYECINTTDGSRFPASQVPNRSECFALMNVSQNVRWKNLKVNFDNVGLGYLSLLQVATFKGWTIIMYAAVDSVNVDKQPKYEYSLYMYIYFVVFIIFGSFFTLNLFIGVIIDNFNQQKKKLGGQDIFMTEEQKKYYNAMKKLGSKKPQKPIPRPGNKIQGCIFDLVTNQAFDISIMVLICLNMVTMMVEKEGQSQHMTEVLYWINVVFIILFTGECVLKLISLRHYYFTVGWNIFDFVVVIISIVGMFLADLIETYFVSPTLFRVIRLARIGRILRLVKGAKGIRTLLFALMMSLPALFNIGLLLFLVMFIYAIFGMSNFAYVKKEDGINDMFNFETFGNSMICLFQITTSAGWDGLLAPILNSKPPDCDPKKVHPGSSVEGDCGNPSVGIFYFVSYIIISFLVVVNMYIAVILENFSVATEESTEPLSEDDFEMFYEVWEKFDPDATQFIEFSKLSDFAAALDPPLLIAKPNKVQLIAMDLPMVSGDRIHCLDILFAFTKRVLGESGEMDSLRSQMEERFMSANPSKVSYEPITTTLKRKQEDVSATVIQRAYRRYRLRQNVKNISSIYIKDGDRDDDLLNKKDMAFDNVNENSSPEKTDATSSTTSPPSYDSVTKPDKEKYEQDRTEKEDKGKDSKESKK", "UniProt P32300, sequence (whole entry, looked up)": "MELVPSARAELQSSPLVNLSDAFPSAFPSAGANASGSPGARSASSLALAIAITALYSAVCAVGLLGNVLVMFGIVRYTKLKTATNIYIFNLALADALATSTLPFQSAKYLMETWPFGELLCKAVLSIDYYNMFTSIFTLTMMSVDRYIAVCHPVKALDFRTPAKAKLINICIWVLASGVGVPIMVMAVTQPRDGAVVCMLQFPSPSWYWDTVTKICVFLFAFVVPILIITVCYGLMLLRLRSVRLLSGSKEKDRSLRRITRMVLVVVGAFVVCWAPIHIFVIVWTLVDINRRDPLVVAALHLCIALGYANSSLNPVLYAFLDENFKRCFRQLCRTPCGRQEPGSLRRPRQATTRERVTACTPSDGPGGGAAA"}
{"SMILES": "CC[C@H](C)[C@@H]1NC(=O)[C@@H](NC(=O)[C@H](CO)NC(=O)[C@@H](N)CCCNC(=N)N)CSSC[C@@H](C(=O)O)NC(=O)[C@H]([C@@H](C)O)NC(=O)CNC(=O)[C@@H]2CSSC[C@@H]3NC(=O)[C@H](CCC(N)=O)NC(=O)[C@H](Cc4ccccc4)NC(=O)[C@H](C)NC(=O)[C@H]([C@@H](C)O)NC(=O)[C@H](CSSC[C@H](NC(=O)[C@H](Cc4ccccc4)NC(=O)[C@H](CO)NC(=O)[C@H](CC(C)C)NC(=O)[C@H](CCCNC(=N)N)NC(=O)[C@H](Cc4ccc(O)cc4)NC(=O)[C@H](CCCCN)NC(=O)[C@H](CCSC)NC(=O)[C@H](CO)NC(=O)[C@H](Cc4cnc[nH]4)NC(=O)[C@H](CCCCN)NC3=O)C(=O)N[C@@H](CCCNC(=N)N)C(=O)N[C@@H](CCCCN)C(=O)N[C@@H]([C@@H](C)O)C(=O)N2)NC(=O)[C@H](CCCNC(=N)N)NC(=O)[C@H](CO)NC(=O)[C@H](CCCCN)NC(=O)[C@@H]2CCCN2C(=O)[C@H]([C@@H](C)CC)NC(=O)[C@H]([C@@H](C)O)NC(=O)[C@H](CC(=O)O)NC1=O", "target": "Kcna3 (Mus musculus, UniProt P16390)", "assay": "ion current, inhibitor, patch clamp", "IC50 [nM]": 0.009}
{"SMILES": "NC(=O)[C@H](CO)NC(=O)[C@@H]1CCCN1C(=O)[C@H](Cc1ccc(O)cc1)NC(=O)CNC(=O)[C@H](Cc1ccccc1)NC(=O)[C@@H](CCCCNC(=O)CBr)NC(=O)[C@@H](N)Cc1ccc(O)cc1", "target": "Oprd1 (Mus musculus, UniProt P32300)", "assay": "radioligand binding", "system": "CHO cells", "setting": "added: 0.15 nM [3H]DPDPE", "IC50 [nM]": "382 ± 22"}
{"SMILES": "C=CCCC[C@H](NC(=O)[C@H](C)NC(=O)[C@H](CCC(=O)O)NC(C)=O)C(=O)N[C@H](C(=O)N[C@@H](CCCNC(=N)N)C(=O)N[C@H](C(=O)N[C@@H](CCCC=C)C(=O)N[C@@H](CCC(N)=O)C(=O)N[C@@H](CCC(N)=O)C(=O)N[C@@H](CC(C)C)C(=O)N[C@@H](CC(C)C)C(=O)N[C@@H](Cc1ccccc1)C(=O)N[C@H](C(=O)N[C@@H](Cc1c[nH]cn1)C(=O)N[C@@H](Cc1ccccc1)C(=O)N[C@@H](CCCNC(=N)N)C(=O)N[C@H](C(=O)NCC(N)=O)[C@@H](C)CC)[C@@H](C)CC)[C@@H](C)CC)[C@@H](C)CC", "target": "gag-pol integrase", "assay": "3′-end processing, inhibitor", "system": "HIV-1", "IC50 [nM]": "9600 ± 600"}
{"SMILES": "CC(C)C[C@@H]1NC(=O)[C@H](Cc2c[nH]c3ccccc23)NC(=O)[C@H](Cc2ccc(O)cc2)NC(=O)[C@H](CCCNC(=N)N)NC(=O)[C@@H](NC(=O)[C@@H](N)CCC(=O)O)CSSC[C@@H]2NC(=O)[C@@H]3CSSC[C@@H](C(=O)N[C@H](C(=O)N[C@@H](Cc4c[nH]c5ccccc45)C(=O)N[C@@H](CC(=O)O)C(=O)NCC(=O)N[C@H](C(=O)N[C@@H](Cc4ccccc4)C(=O)N[C@@H](CO)C(=O)O)[C@@H](C)O)C(C)C)NC(=O)[C@H](Cc4c[nH]c5ccccc45)NC(=O)CNC(=O)[C@H](Cc4c[nH]cn4)NC(=O)[C@H](CCCNC(=N)N)NC(=O)[C@H](CCCNC(=N)N)NC(=O)[C@H](CO)NC(=O)[C@H](CSSC[C@H](NC(=O)CNC(=O)CNC1=O)C(=O)N[C@@H](CO)C(=O)N[C@@H](C)C(=O)NCC(=O)N[C@@H](CCC(N)=O)C(=O)N[C@@H]([C@@H](C)O)C(=O)N3)NC(=O)[C@H](C(C)C)NC(=O)[C@H](CC(C)C)NC(=O)[C@H](Cc1c[nH]cn1)NC(=O)[C@H](CCCCN)NC2=O", "target": "CACNA1I (Homo sapiens, UniProt Q9P0X4)", "assay": "inhibitor, cell-based", "IC50 [nM]": 26}
{"SMILES": "CC[C@H](C)[C@H](NC(=O)[C@H](C)NC(=O)[C@H](CO)NC(=O)[C@H](CC(C)C)NC(=O)[C@H](Cc1ccc(O)cc1)NC(=O)[C@@H](NC(=O)[C@H](CC(=O)O)NC(=O)[C@H](CO)NC(=O)[C@H](CCC(N)=O)NC(=O)[C@H](C)NC(=O)[C@H](CC(C)C)NC(=O)[C@H](Cc1c[nH]cn1)NC(=O)[C@H](CCC(N)=O)NC(=O)[C@H](CC(C)C)NC(=O)[C@H](C)NC(=O)[C@H](CC(=O)O)NC(=O)[C@H](CO)NC(=O)[C@H](CC(C)C)NC(=O)[C@H](CO)NC(=O)[C@H](CCCCN)NC(=O)[C@H](CC(N)=O)NC(=O)[C@@H](NC(=O)[C@H](C)NC(=O)[C@H](C)NC(=O)[C@H](CC(C)C)NC(=O)[C@H](CC(N)=O)NC(=O)[C@H](CCC(N)=O)NC(=O)[C@H](CO)NC(=O)[C@@H](NC(=O)[C@H](CC(=O)O)NC(=O)[C@H](CC(C)C)NC(=O)[C@@H]1CCCN1C(=O)[C@H](CC(=O)O)NC(=O)[C@@H](NC(=O)[C@H](CO)NC(=O)[C@H](CC(C)C)NC(=O)[C@@H](NC(=O)[C@H](CCC(N)=O)NC(=O)[C@H](CO)NC(=O)[C@H](CO)NC(=O)[C@H](CCC(=O)O)NC(=O)[C@H](CC(C)C)NC(=O)[C@@H](N)CCCCN)[C@@H](C)CC)[C@@H](C)CC)C(C)C)C(C)C)[C@@H](C)O)C(=O)O", "target": "Fusion glycoprotein F0, fusion protein (F, Parainfluenza virus 5, UniProt P04849)", "assay": "cell-cell fusion, inhibitor, luciferase reporter", "system": "Vero plus BSR-T7 cells", "setting": "6 h, 37 °C, added: SV5 F and HN", "IC50 [nM]": "58 ± 6"}
{"SMILES": "CC[C@H](C)[C@@H]1NC(=O)[C@H](C)NC(=O)[C@@H](NC(C)=O)CCCC=CCCC[C@@H](C(=O)N[C@H](C(=O)N[C@@H](CC(C)C)C(=O)N[C@@H](CCC(N)=O)C(=O)N[C@@H](CCC(N)=O)C(=O)N[C@@H](CC(C)C)C(=O)N[C@@H](CC(C)C)C(=O)N[C@@H](Cc2ccccc2)C(=O)N[C@H](C(=O)N[C@@H](Cc2c[nH]cn2)C(=O)N[C@@H](Cc2ccccc2)C(=O)N[C@@H](CCCNC(=N)N)C(=O)N[C@H](C(=O)NCC(N)=O)[C@@H](C)CC)[C@@H](C)CC)[C@@H](C)CC)NC(=O)[C@H]([C@@H](C)CC)NC1=O", "target": "gag-pol integrase", "assay": "3′-end processing, inhibitor", "system": "HIV-1", "IC50 [nM]": "5800 ± 800"}
{"SMILES": "CC(C)C[C@H](NC(=O)[C@H](CC(=O)O)NC(=O)[C@H](Cc1ccc(O)cc1)NC(=O)[C@H](CCCCN)NC(=O)[C@@H]1CSSC[C@@H]2NC(=O)[C@H](CCCCN)NC(=O)[C@H](CC(=O)O)NC(=O)[C@H](CC(N)=O)NC(=O)[C@H](CO)NC(=O)[C@@H]3CCCN3C(=O)[C@H](CC(N)=O)NC(=O)[C@@H]3CSSC[C@H](NC(=O)[C@H](C(C)C)NC(=O)[C@H](CC(C)C)NC(=O)[C@H](CO)NC(=O)[C@H](CO)NC(=O)[C@H](CO)NC(=O)[C@H](CCCCN)NC(=O)[C@H](CSSC[C@H](NC(=O)[C@H](C)N)C(=O)N[C@@H](CC(C)C)C(=O)NCC(=O)N[C@@H](Cc4ccccc4)C(=O)NCC(=O)N[C@@H](CCC(=O)O)C(=O)N[C@@H](CCCCN)C(=O)N3)NC2=O)C(=O)N[C@@H](CO)C(=O)N[C@@H](CCC(N)=O)C(=O)N[C@@H](CCCCN)C(=O)N[C@@H](Cc2c[nH]cn2)C(=O)N[C@@H](CCCCN)C(=O)N[C@@H](Cc2c[nH]c3ccccc23)C(=O)N1)C(=O)O", "target": "SCN9A (Homo sapiens, UniProt Q15858)", "assay": "sodium current, inhibitor, whole-cell patch clamp", "system": "HEK293T transfected with hNav1.7", "setting": "room temperature, holding -80 mV, step to 0 mV for 50 ms", "IC50 [nM]": 487}
{"SMILES": "O=C(COc1ccc2c(c1O)C(=O)c1ccccc1C2=O)c1ccccc1", "target": "Gag-Pol polyprotein, RT RNase H activity (gag-pol, Human immunodeficiency virus 1, UniProt P03366, K702N)", "assay": "enzyme activity, inhibitor", "IC50 [nM]": "> 100000"}
{"SMILES": "O=C1c2c(ccc(O)c2O)CN1Cc1ccc(F)c(Cl)c1", "target": "Gag-Pol polyprotein, integrase (gag-pol, Human immunodeficiency virus 1, UniProt P12497, Y1290R)", "assay": "enzyme activity, inhibitor", "IC50 [nM]": "2500 ± 300"}
{"SMILES": "CC(C)C[C@H](NC(=O)[C@H](Cc1ccccc1)NC(=O)[C@H](Cc1ccc(O)cc1)NC(=O)[C@H](C)NC(=O)[C@@H](N)[C@@H](C)O)C(=O)N[C@@H](CC(C)C)C(=O)N[C@@]1(C)CCCC=CCCC[C@@](C)(C(=O)N[C@@H](Cc2c[nH]c3ccccc23)C(N)=O)NC(=O)CNC(=O)[C@H](C)NC(=O)[C@H](CC(C)C)NC1=O", "target": "gag-pol integrase", "assay": "integrase 3'-processing, inhibitor", "IC50 [nM]": "> 100000"}
{"note": "A few entries again:"}
{"SMILES": "CC[C@H](C)[C@@H]1NC(=O)[C@@H](NC(=O)[C@H](CO)NC(=O)[C@@H](N)CCCNC(=N)N)CSSC[C@@H](C(=O)O)NC(=O)[C@H]([C@@H](C)O)NC(=O)CNC(=O)[C@@H]2CSSC[C@@H]3NC(=O)[C@H](CCC(N)=O)NC(=O)[C@H](Cc4ccccc4)NC(=O)[C@H](C)NC(=O)[C@H]([C@@H](C)O)NC(=O)[C@H](CSSC[C@H](NC(=O)[C@H](Cc4ccccc4)NC(=O)[C@H](CO)NC(=O)[C@H](CC(C)C)NC(=O)[C@H](CCCNC(=N)N)NC(=O)[C@H](Cc4ccc(O)cc4)NC(=O)[C@H](CCCCN)NC(=O)[C@H](CCSC)NC(=O)[C@H](CO)NC(=O)[C@H](Cc4cnc[nH]4)NC(=O)[C@H](CCCCN)NC3=O)C(=O)N[C@@H](CCCNC(=N)N)C(=O)N[C@@H](CCCCN)C(=O)N[C@@H]([C@@H](C)O)C(=O)N2)NC(=O)[C@H](CCCNC(=N)N)NC(=O)[C@H](CO)NC(=O)[C@H](CCCCN)NC(=O)[C@@H]2CCCN2C(=O)[C@H]([C@@H](C)CC)NC(=O)[C@H]([C@@H](C)O)NC(=O)[C@H](CC(=O)O)NC1=O", "target": "Kcna3 (Mus musculus, UniProt P16390)", "assay": "ion current, inhibitor, patch clamp", "IC50 [nM]": 0.009}
